{"data": "Results of several laboratories", "organism": "Klebsiella pneumoniae", "note": "Each line is one published result; not all experiments were run side by side."}
{"Structure (SMILES)": "CN(C)c1ccc(CNc2ccc(C(=O)O)cc2)cc1", "technique": "broth microdilution", "MIC": "64 µg/mL"}
{"Structure (SMILES)": "C[C@]1(Cn2ccnn2)[C@H](C(=O)O)N2C(=O)C[C@H]2S1(=O)=O", "strain": "ATCC 700603 ESBL", "setting": "compound alone", "MIC": "128 µg/mL"}
{"Structure (SMILES)": "CN(C)[C@@H]1C(O)=C(C(N)=O)C(=O)[C@@]2(O)C(O)=C3C(=O)c4c(O)cccc4[C@@](C)(O)[C@H]3C[C@@H]12", "technique": "broth microdilution", "strain": "NCTC 13438", "time": "24 h", "setting": "ambient air", "MIC": "8 µg/mL"}
{"Structure (SMILES)": "CC(C)(O/N=C(\\C(=O)N[C@@H]1C(=O)N2C(C(=O)[O-])=C(C[n+]3ccccc3)CS[C@H]12)c1csc(N)n1)C(=O)O", "technique": "broth microdilution", "strain": "ATCC 43816 acrAB knockout", "MIC": "< 0.5 µg/mL"}
{"Structure (SMILES)": "O=C(Cc1ccccc1)N[C@@H]1C(=O)N2C(C(=O)O)=C(CSc3cccc4cccnc34)CS(=O)(=O)[C@H]12", "strain": "11228", "MIC": "32 µg/mL"}
{"Structure (SMILES)": "Cc1c(CN(C)C(=O)/C=C/c2cnc3c(c2)CCC(=O)N3)oc2ccccc12", "technique": "broth microdilution", "strain": "S47889", "MIC": "> 32 µg/mL"}
{"Structure (SMILES)": "CC(C)(O/N=C(\\C(=O)N[C@@H]1C(=O)N2C(C(=O)[O-])=C(C[n+]3ccccc3)CS[C@H]12)c1csc(N)n1)C(=O)O", "technique": "broth microdilution", "strain": "NCTC 13438", "time": "24 h", "setting": "5% CO2", "MIC": "512 µg/mL"}
{"Structure (SMILES)": "CC1(C)S[C@@H]2[C@H](NC(=O)[C@H](N)c3ccc(O)cc3)C(=O)N2[C@H]1C(=O)O", "technique": "broth microdilution", "strain": "clinical isolate", "matrix": "Mueller-Hinton broth", "time": "24 h", "temperature": "37 °C", "MIC": "> 400 µM"}
{"Structure (SMILES)": "Cc1onc(-c2ccccc2)c1C(=O)N[C@@H]1C(=O)N2[C@@H]1SC(C)(C)[C@@H]2C(=O)O", "strain": "ALE CTX-M-15", "matrix": "Mueller Hinton broth", "time": "overnight", "temperature": "37 °C", "MIC": "> 512 µg/mL"}
{"Structure (SMILES)": "CC(C)(CN)CNCc1nc2ccccc2n1CCOc1ccccc1", "strain": "ATCC 700603", "MIC": "64 µg/mL"}
{"Structure (SMILES)": "Cc1cc(-c2cn[nH]c2-c2cccc(OCc3cccc(C#N)c3)c2)cc(C)n1", "technique": "broth microdilution", "strain": "ATCC BAA-1705", "MIC": "4 µg/mL"}
{"Structure (SMILES)": "CCN1CCN(C(=O)N[C@@H](C(=O)N[C@@H]2C(=O)N3[C@@H]2SC(C)(C)[C@@H]3C(=O)O)c2ccccc2)C(=O)C1=O", "technique": "broth microdilution", "strain": "ATCC 43816 acrAB knockout", "MIC": "1 µg/mL"}
{"Structure (SMILES)": "N=C(N)c1ccc(OCc2ccccc2COc2ccc(C(=N)N)cc2)cc1", "strain": "ATCC 13883", "setting": "compound alone", "MIC": "> 200 µg/mL"}
{"Structure (SMILES)": "CO/N=C(\\C(=O)N[C@@H]1C(=O)N2C(C(=O)O)=C(COC(C)=O)CS[C@H]12)c1csc(N)n1", "strain": "DOU, CTX-M-15", "matrix": "Mueller-Hinton broth", "time": "overnight", "temperature": "37 °C", "MIC": "8 µg/mL"}
{"Structure (SMILES)": "O=C(O)c1ccc(NCc2cc(Br)ccc2O)cc1", "technique": "broth microdilution", "MIC": "64 µg/mL"}
{"Structure (SMILES)": "CC(C)(O/N=C(\\C(=O)N[C@@H]1C(=O)N2C(C(=O)[O-])=C(C[n+]3ccccc3)CS[C@H]12)c1csc(N)n1)C(=O)O", "technique": "broth microdilution", "strain": "KP", "time": "18 h", "MIC": "8 µg/mL"}
{"Structure (SMILES)": "O=C(N[C@H](CO)[C@H](O)c1ccc([N+](=O)[O-])cc1)C(Cl)Cl", "technique": "broth microdilution", "strain": "NCTC 13438", "time": "24 h", "setting": "ambient air", "MIC": "64 µg/mL"}
{"Structure (SMILES)": "Cc1c(CN(C)C(=O)/C=C/c2cnc3c(c2)CC(NC(=O)OC(C)(C)C)C(=O)N3)oc2ccccc12 (stereo not drawn)", "technique": "broth microdilution", "strain": "AR-0548", "MIC": "> 32 µg/mL"}
